Assay results from different studies.
Each numbered part is a random draw from the data of one study; scales do not carry over between parts. Changes are numbered by the printed parent chain.

Block 1
Target: Interferon regulatory factor 7, full length, phosphomimetic (IRF7, Homo sapiens, UniProt Q92985, residues 1-503, S471D/S472D/S475D/S476D/S477D/S483D/S484D/S487D)
Method: protein-binding microarray
Molecule type: double-stranded DNA, one strand shown
Sample: in vitro
Tested at: 2200 nM top
Setting: 60-bp whole probe
Together with: salmon DNA 0.4 mg/ml
Relative to: random background probes
Direction: higher = stronger binding
Constant ends, left off below: GCCTAGCAC … GTCTTGATTCGCTTGACGCTGCTG
Residues (chain): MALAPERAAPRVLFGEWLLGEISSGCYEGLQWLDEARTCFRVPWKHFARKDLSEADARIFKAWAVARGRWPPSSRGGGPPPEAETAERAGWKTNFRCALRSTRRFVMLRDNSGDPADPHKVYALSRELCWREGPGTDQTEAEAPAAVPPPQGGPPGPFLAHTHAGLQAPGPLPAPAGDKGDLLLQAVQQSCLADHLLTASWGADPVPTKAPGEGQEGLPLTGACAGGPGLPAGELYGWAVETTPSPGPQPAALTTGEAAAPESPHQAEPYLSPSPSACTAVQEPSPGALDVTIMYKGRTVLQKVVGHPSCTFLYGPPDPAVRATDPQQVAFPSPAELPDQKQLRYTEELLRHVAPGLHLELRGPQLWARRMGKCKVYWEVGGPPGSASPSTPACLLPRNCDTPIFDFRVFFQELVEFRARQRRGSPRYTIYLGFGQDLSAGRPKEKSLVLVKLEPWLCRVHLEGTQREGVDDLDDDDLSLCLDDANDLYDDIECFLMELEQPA
Oligonucleotide	fitted relative affinity [z-score]
TTAGATTTCACTTTCGATTAGTGCTAG	10.9
GACGATTTCAATATCGAGACGTGCTAG	0.452
TTAGAACTGGGGTATCGAGTAGTGCTA	-0.0279
TTAGGACTGGGTATGGGTTAGTGCTAG	-0.618
TCATTTTTCCCTATTATACTGTGCTAG	3.32
TTAGATCCCAGTATCGATTAGTGCTAG	0.861
GACGGTTTCGACACCGGGGACGTGCTA	2.23
TTAGGTCTCGGTTTCGCTTAGTGCTAG	5.12
GACGAACTGAGTGTCGAGACGTGCTAG	-0.244
TTAGGAGTGGACACTGGGTTAGTGCTA	-0.625
ACTTGTATTTGTCCCTATTTGTGCTAG	2.33
TTCCAATTCTTTTTATGCTTGTGCTAG	1.96
TCAAATTTTAGTAACACACTGTGCTAG	-0.413
GACGGTTCTCTTTTCCTGACGTGCTAG	1.96
TCAGATATAAATGTAACACTGTGCTAG	-0.182
AATGTATAACGCCATTAGCTGTGCTAG	0.219
TCACCTCTGCATTCCCTACTGTGCTAG	2.46
TTAGATATCGGGTTTGGATTAGTGCTA	0.426
AGTGTTATAATATTATTGCAGTGCTAG	0.216
GACGGTATCGGTATCGGGACGTGCTAG	0.39
TTAGATATTAGTCTCGATTAGTGCTAG	0.354

Block 2
Target: RNA binding protein fox-1 homolog 2, RRM domain, GST-SBP tag (RBFOX2, Homo sapiens, UniProt O43251-10, residues 100-194)
Method: RNA Bind-n-Seq
Molecule type: RNA
Sample: in vitro
Tested at: 365 nM
Setting: natural RNA segment, single round, ends assumed
Relative to: no-protein control
Direction: higher = stronger binding
Constant ends, left off below: GGGAGUUCUACAGUCCGACGAUC … UGGAAUUCUCGGGUGCCAA
Construct (chain): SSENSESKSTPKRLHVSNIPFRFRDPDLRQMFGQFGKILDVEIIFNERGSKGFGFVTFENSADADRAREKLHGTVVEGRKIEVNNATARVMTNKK
Oligonucleotide	RBNS enrichment (R)
GUUGCUGGGACCCAGGAGGAAAGGGGAAGAUGUCCUGUUUCCUAUCCUAGGUGUGGACGCCCGCCUUGCCCUUUGUUAGCUUCCUGGGUUCCCAUGAACUCAGGGAUUUG	0.354
GGGAGGAGGACUUGGCAACUGGCUUUUCUCCUGUGGAGUCGUCACACGCCAUCCAGCAGCGCUAAGGUGGACAUGGGAUUCCUCCCUGCGAUGCGUGUCUUUCCCACGCA	0.611
ACCACCUGUAUAGUGGGGAAGUUCAGGGAGUGCACGCCUGAGUUAUGUGCUUUGUCAUUUUCUUUGCUAAACAAAAGAGGCUAUGAAAGAACUAAAUAUGAGUACAUAAA	0.692
CACAGGGCAUGGAACCCUGAACCAGAAUGUCCCUGCAGUGCCGGAGAGGUCGCCGUGGGAAAACAGCACAACAGCACCUCUUGUGUGUGUACUUUCUACCCCCGCCCCCA	1.41
UGUAAAGAAAGAGGGACUGCAGUGUAGCUCCUUUAGUGGUGAGACAUGAAGGCUGUGGCAAUCUCAAGAAAUCAUUUUAAUUUGUACAUAUAUUUUCAGGUUCUGCCCAC	0.377
UCAGUGCUAGGUUGACAGGUGGGCGUCGCCAUGCCUGGACCAAUUCCUGCACAGCACAGGAAGGCUCCACUCCAUGAAGGAGUGCAUUUAGAAUGGCAUCCUGGUCCUGG	0.356
UAUUGUGGGUACUUUUGUGUGCUCAUUUGUGUUUUCCCCCCCUCCUACAACAUUUUUUUAACCCCAAAAUUAUAGCCUGAAUGUUCGCUUUUAGUCUGGCCAGGGAUCUG	0.656
CCAAGCUGCGUUAUAUUCUGUACUGUGUACAAUAAAGAAGUUUGCUUUUCGUUUACCAAGCACCCGACCUGCCUCUUUCUUGCCCUCAUUGGUCUAAUUUUAAAGCAGGC	0.432
CCUCACCCAGAUUGAAACUCUCUUCAAGUCUAAGGACUAUGAGUUCAUGUGGAACCCUCACCUGGGCUACAUCCUCACCUGCCCAUCCAACCUGGGCACCGGGCUGCGGG	0.324
CCCACGCUGGGGAAAGCGGGAAGCGCUCGCUCCCUUUCCCCCAUUAGUGCUCUCUCUGCCUGGAUCCCGGCAGAAGCUAUGAAAGGGAAUAAAGAGAAAAGAAGUACCCA	0.278
ACACAGGUAUUAAAUAUAUCGCUCUAUAUAAUAUUAUAUAUGUGUGUGGUAUCCAAGGAAUCACUUUUAUGAGGGCUAAAGAUAAAGAAUUUGGCCAGAAAAUGCAGCCA	0.91
GGUGAUUUUCCAGUUGUAAAUGUCAUGCAGCAUUUGAAGGGACUGUGUUUUCUUAAAAAAAAAUCACAGUUACUUCUAAACCAGAUUUCAUUUCUUUUAUUGUUUUAUGU	0.331

Block 3
Target: RING finger protein unkempt homolog, zinc fingers 1-6, GST-SBP tag (UNK, Homo sapiens, UniProt Q9C0B0, residues 30-357)
Method: RNA Bind-n-Seq
Molecule type: RNA
Sample: in vitro
Tested at: not given
Setting: RNA with constant flanks, human and mouse sites, ends assumed
Relative to: input RNA pool
Direction: higher = stronger binding
Constant ends, left off below: GGGAGUUCUACAGUCCGACGAUC … CAACAGAGGAUUGAGCAUCA
Residues (chain): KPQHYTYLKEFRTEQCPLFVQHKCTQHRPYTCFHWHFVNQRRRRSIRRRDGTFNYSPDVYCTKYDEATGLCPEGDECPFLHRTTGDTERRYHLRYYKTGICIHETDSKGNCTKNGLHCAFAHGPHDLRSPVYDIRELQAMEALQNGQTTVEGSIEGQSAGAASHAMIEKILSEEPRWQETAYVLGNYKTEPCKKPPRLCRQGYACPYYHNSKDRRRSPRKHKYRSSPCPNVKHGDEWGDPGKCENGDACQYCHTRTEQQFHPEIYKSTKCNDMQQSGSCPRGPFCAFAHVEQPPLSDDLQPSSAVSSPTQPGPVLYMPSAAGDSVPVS
Oligonucleotide	bound/input enrichment [ratio]
UCUUUUUAGUGGAAGACAGACCAUAAUCCCAGUGUGAGUGAAAUUGAUUGUUUCAUUUAUUACCGUUUUGGCUGGGGGUUAGUUCCGACACCUUCACAGUUGAAGAGCAGGCAGAAGGAG	0.297
AGCGACUCCUAUAAUUUCUAAUAUUUAAUUUGUUCUUUUAUAUAUAUAUAUUUUUUUGUAAAUCUAUUAUGACAGUUUACAACUAAGCCUUUUUAUAAACUUUUUUUAAAAGUGAUACUU	126
GAGCCAUCCAGUGGCCCCCACCAGGAAAUGCAAGAGCUACCCACUGAUCUACUCCGGGAAGUGGAGGAGCCAUCCAGUGGCCCCUACCAGGAAAUGCAAGAGCUACCCACUGAUCUACUC	0.0835
AGGGAAAUAUUAUCUGAUGACAAGCAUGAUUGGGAGCAGAGAGUAAAUGCUCUAAAAAAGAUUAGAUCUUUACUUUUGGCUGGUGCUGCUGAGUAUGAUAACUUCUUUCAACAUUUGCGU	0.298
GAAGUACUUAAAGCAGAAAGACCUGAUGUGGACGAGAAACGAUCUGAUCUUCUUAAACUUCAAGGGGAAUUUCAGCUCCGUUUGCGUCAGCUGGAAAAAUCUCUACUACAAGCUCUGAAC	0.112
UUAUUUAAACGCUGAAGCUUUUUGUUGUUGAUGAAAGAGUUCUUUGCACAAUUGUCCCAUUGUUUGACACCCAGUGUACUUGUCAUUUGCAUAAGACAGCAUUCUGACCACACUUGUAUG	0.175
GGGAUUUUUAUGUUAACUUUUUUCAUGGCAUUCCUCUUCAACUGGAUUGGGUUUUUCUUGUCUUUUUGCCUGACCACCUCAGCUGCGGGAAGGUAUGGGGCCAUCUCAGGAUUUGGUCUU	0.15
CAGGGACUCUGGUGCCAAAUCCAGAAAGAUCUGCUCUGCUGCCCUGAACUCUUACGGCAAUUUAGGUUUCUCAUUUUUCUUUUCUUUUUACAUAUGUACAAAUUGUUUUAAGCUUUGGCC	7.24
GGUGUCUCCAGGGACCCUCGGAGUACUUGUGGGAUCUAAAGUUGAUUCAAGAUGAUUUCUGGGAUUUGAAAUUACCCAGUGGGAAGCAUAUACAUGCAUACAAAUACUUAUGUACAUUAU	0.142
AUUGUCAAAACUUUAUAUCACCUAAAGUCAGAAUUUCAAGCAAUAAUACCUGCUGUUAAUUCCCACAUUCAGUCAGACUUGCUCCGGACCGUUAUUUUAGAAAUUCCUGAACUCCUCAGU	0.678
UCCCUCGCCUGUGGUAAACCAACACAGCGGGUCCUCACAAAAGAACCCAAGUCCAAGGAGAUAGAAAGUGGCCACAUAUUUACAGUUAAUGAUCAAUUCACAUCUAAACUACACAGAGUC	0.533

Block 4
Target: ABI1, truncated, D143A, DHFR fusion (Arabidopsis thaliana)
Method: DHFR PCA, deep sequencing
Sample: yeast
Setting: methotrexate growth selection, single substitutions
Together with: (+)-ABA 58 µM
Relative to: wild-type fitted maximum
Direction: higher = stronger binding
Starting sequence: PYL1, truncated, DHFR fusion (Arabidopsis thaliana); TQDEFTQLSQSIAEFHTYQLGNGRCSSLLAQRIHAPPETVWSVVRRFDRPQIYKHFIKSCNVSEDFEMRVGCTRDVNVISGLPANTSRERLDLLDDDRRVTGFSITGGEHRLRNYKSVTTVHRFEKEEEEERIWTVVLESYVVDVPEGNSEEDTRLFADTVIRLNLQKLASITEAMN
Variant	relative binding score
T101A	69.5%
H34F	80.8%
T86W	91%
F66R	74.2%
V145A	46.9%
R99I	1.54%
T6N	89.7%
E64Y	74.1%
A158H	25.5%
L28F	66.7%
V100N	4.61%
L112Q	6.17%
D97F	86.7%
E89S	5.73%
L94H	87.8%
E64S	86.9%

Block 5
Target: Histone acetyltransferase KAT6A, both winged helices, GST fusion (KAT6A, Homo sapiens, UniProt Q92794, residues 1-181)
Method: protein binding microarray
Molecule type: double-stranded DNA, one strand shown
Sample: in vitro
Tested at: not given
Setting: 8-mer, flanks averaged, mean of 2 arrays, mostly near background
Relative to: not given
Direction: higher = stronger binding
Residues (chain): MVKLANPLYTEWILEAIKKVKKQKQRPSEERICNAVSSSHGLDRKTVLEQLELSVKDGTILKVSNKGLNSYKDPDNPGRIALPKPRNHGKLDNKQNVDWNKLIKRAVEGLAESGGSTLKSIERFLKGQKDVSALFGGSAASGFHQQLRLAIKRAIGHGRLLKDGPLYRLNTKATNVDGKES
Oligonucleotide	E-score
CTCTACAC	-0.135
ACCCCTCG	-0.12
AACGTTCA	0.044
ATCGCTGA	-0.0188
AACTCTGT	0.0353
CGGCGGGA	0.331
AACTCTGG	-0.186
GACGTCTC	-0.0326
TCGGCTAA	0.272
AGTATTAG	-0.136
AGTCTGGG	-0.259
CATAGACG	0.0989
CAAAGATA	-0.152
AAGTGACC	-0.175
AGCGACTC	-0.0567
GGAGGCAA	-0.0703
CCACTCAG	-0.127

Block 6
Target: CCNB2, cyclin fold, Cln2 fusion (human)
Method: yeast growth competition, sequencing
Sample: yeast
Setting: weak parent motif
Relative to: not given
Direction: higher = stronger binding
Starting sequence: ORC1 docking peptide (human); PRARKRLELGNLG
Variant	normalised enrichment score
PRARKRLQLGNLG [E8Q]	0.944
PRALKRLELGNLG [R4L]	0.198
CRARKRLELGNLG [P1C]	0.664
PRARKRLEPGNLG [L9P]	0.205
PRARKRTELGNLG [L7T]	-0.273
PRARKRLELGNKG [L12K]	0.459
PRAKKRLELGNLG [R4K]	0.331
SRARKRLELGNLG [P1S]	-0.0209
PNARKRLELGNLG [R2N]	0.063
PRARKRLELTNLG [G10T]	0.305
PCARKRLELGNLG [R2C]	0.0663
PRARKRLELGNQG [L12Q]	0.293
PRARKRLELGNVG [L12V]	0.299
YRARKRLELGNLG [P1Y]	0.267
PRARKRLELANLG [G10A]	0.357
PRARKRLELGSLG [N11S]	0.669

Single results of other studies
Molecule	target	assay	test system	conditions	how to read	quantity	result
PhoQ, residues 284 288 289 292 302 303 SQSLSM	PhoP, residues 12 14 15 18 19 IQFRS (Escherichia coli, UniProt P23836)	Sort-seq, refers to: YFP reporter	E. coli	PhoQ-PhoP variant library, together with: 10 µM Mg2+	relative to: high Mg2+ state, higher = stronger signaling	fold induction	16.8

Some of these lines once more (block 4):
Variant	relative binding score
T86W	91%
F66R	74.2%
V145A	46.9%
R99I	1.54%
T6N	89.7%
E64Y	74.1%
A158H	25.5%
L28F	66.7%
V100N	4.61%
L112Q	6.17%
D97F	86.7%
E89S	5.73%
L94H	87.8%
E64S	86.9%
